Measured values pooled from the literature.
Each numbered part is a random draw from the data of one study; scales do not carry over between parts. Substitutions count along the parent as printed.

Study 1 — method: DHFR PCA, deep sequencing; sample: yeast; together with: (+)-ABA 0.11 µM; baseline: wild-type fitted maximum; reading: higher = stronger binding
Target: ABI1, truncated, D143A, DHFR fusion (Arabidopsis thaliana)
Notes: methotrexate growth selection, single substitutions
Parent: PYL1, truncated, DHFR fusion (Arabidopsis thaliana); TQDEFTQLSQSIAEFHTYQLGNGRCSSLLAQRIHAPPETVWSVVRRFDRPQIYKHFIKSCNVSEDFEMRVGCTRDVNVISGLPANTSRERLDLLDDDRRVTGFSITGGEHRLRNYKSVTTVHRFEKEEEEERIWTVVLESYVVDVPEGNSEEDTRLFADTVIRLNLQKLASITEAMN; partner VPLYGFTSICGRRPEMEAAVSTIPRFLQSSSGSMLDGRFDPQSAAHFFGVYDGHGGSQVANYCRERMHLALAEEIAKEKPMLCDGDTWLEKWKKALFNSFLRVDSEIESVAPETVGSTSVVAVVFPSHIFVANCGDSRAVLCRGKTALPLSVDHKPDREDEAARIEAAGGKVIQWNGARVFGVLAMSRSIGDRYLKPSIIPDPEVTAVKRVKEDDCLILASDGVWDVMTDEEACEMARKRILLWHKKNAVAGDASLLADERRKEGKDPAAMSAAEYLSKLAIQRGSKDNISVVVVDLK
For `E109N`, “relative binding score” read 52.4%.
`V78H`: “relative binding score” 55.2%.
`Y141G` — result for “relative binding score”: -3.22%.
`Y18Q` — result for “relative binding score”: -1.39%.
`P50E`: “relative binding score” 3.33%.
`A175T`: “relative binding score” 23.5%.
`K168P` — result for “relative binding score”: 1.82%.
Under “relative binding score”, `Q51V` is recorded as 5.81%.
For `I52C`, “relative binding score” read 15.7%.
`R45L`: “relative binding score” -0.733%.
`S104I` — result for “relative binding score”: 3.72%.
`Q2V` — result for “relative binding score”: 62%.
Under “relative binding score”, `G107S` is recorded as 33.1%.

Study 2 — method: RNA Bind-n-Seq; molecule type: RNA; sample: in vitro; concentration: 200 nM; notes: whole 134-nt RNA, ends assumed; together with: 150 mM LiCl; baseline: input library; reading: higher = stronger binding; all molecules: 7-deaza-guanosine replaces G
Target: Ras GTPase-activating protein-binding protein 1, full length (G3BP1, Homo sapiens, UniProt Q13283)
Sequence of UniProt Q13283 (whole entry, looked up): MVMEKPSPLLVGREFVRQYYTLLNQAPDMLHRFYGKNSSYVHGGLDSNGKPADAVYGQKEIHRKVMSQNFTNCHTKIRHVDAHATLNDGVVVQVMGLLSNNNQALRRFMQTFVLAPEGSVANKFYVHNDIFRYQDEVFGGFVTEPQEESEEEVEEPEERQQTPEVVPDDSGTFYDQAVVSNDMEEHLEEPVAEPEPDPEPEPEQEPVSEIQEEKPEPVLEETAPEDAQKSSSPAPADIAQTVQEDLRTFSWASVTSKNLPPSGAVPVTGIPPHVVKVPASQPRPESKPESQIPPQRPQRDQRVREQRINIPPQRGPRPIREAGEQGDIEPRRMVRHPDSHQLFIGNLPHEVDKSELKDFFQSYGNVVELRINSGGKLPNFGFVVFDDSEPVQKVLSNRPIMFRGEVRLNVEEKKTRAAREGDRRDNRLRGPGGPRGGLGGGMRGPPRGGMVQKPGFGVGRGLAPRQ
With `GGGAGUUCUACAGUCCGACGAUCAAGUCCUGUGCUACACAUCGUAUGUACCGAAUCGGGCCCCGGGCCCCGGGCCCCGGGAAAGUAUUAUGUUACGCCGUUCGGAUCUGCACUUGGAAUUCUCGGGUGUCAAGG` the log2 enrichment was -2.02.
`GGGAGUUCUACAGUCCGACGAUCCUGUGCUACACAUCGUAUGUACCGAAUCGGGGUUUUUUGGGGUUUUUUGGGGUUUUUUGGGAAAGUAUUAUGUUACGCCGUUCGGAUCUGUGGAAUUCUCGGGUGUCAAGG` gave a log2 enrichment of 1.28.
For `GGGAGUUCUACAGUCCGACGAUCCCUGUGCUACACAUCGUAUGUACCGAAUCGGGGAAAAAAGGGGAAAAAAGGGGAAAAAAGGAAAGUAUUAUGUUACGCCGUUCGGAUCUGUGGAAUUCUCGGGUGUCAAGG`, the log2 enrichment was 0.794.
`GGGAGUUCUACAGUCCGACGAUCUCAAGUCCUGUGCUACACAUCGUAUGUACCGAAUCGGAGGUUUUUGGUUUUUGGAAAGUAUUAUGUUACGCCGUUCGGAUCUGCACUUCCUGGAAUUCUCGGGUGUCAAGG` has a log2 enrichment of -0.463.
The log2 enrichment of `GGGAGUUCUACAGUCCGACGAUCUCUAACUAAUUUUUCUUUGUUUUUUAACAGGAGAGGAGAUACUUACCCUUAAGUCAAGCCAGAAAAAGUGGUUUCCAAAUGGAUUGGCUGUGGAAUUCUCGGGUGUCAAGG` is reported as -1.46.
`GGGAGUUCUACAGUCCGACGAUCUUCCGCGACUACCGGCGUGUGCACAAGCCGCCCAAGGUGCAGGAGAAGUGCCAGCUGGAGAUCAACUUCAACACGCUGCAGACCAAGCUGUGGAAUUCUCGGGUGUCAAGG` has a log2 enrichment of -2.08.
With `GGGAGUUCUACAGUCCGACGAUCCUCCAGAAAGCAGUGGGGCCUGAGAUCACCAAGACAGACCUGGUCCCUGCCUUCCAGAACCUGAUGAAAGACUGUGAGGCCGAGGUGAGGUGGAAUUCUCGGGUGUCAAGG` the log2 enrichment was -1.35.
`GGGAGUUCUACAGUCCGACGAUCCUCAAGUCCUGUGCUACACAUCGUAUGUACCGAAUCGGGGUGGGGUGGUGGGGAAAGUAUUAUGUUACGCCGUUCGGAUCUGCACUUCCAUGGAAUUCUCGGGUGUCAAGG` has a log2 enrichment of -0.34.
`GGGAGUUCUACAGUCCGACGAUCUCAAGUCCUGUGCUACACAUCGUAUGUACCGAAUCGGGAGGGAAAAAGGGUGGGAAAGUAUUAUGUUACGCCGUUCGGAUCUGCACUUCCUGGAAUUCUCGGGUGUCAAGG` has a log2 enrichment of -0.72.
The log2 enrichment of `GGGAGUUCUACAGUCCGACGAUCUCAAGUCCUGUGCUACACAUCGUAUGUACCGAAUCGGCCCGGGCCCGGGCCCGGAAAGUAUUAUGUUACGCCGUUCGGAUCUGCACUUCCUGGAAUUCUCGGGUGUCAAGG` is reported as -0.954.
The log2 enrichment of `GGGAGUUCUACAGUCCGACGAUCUCCUGUGCUACACAUCGUAUGUACCGAAUCGGGGAAAAAGGGGAAAAAGGGAAAAAGGGGAAAGUAUUAUGUUACGCCGUUCGGAUCUGCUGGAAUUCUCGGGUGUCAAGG` is reported as -0.106.

Study 3 — method: protein binding microarray; molecule type: double-stranded DNA, one strand shown; sample: in vitro; concentration: not given; baseline: not given; reading: higher = stronger binding
Target: Histone acetyltransferase KAT6A, both winged helices, GST fusion (KAT6A, Homo sapiens, UniProt Q92794, residues 1-181)
Notes: 8-mer, flanks averaged, mean of 2 arrays, mostly near background
Residues (chain): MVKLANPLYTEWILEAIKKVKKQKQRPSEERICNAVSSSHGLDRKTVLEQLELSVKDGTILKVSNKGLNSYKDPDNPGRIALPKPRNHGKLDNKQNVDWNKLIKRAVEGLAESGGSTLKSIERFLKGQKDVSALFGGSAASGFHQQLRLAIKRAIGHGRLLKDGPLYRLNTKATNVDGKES
`GAGTATTA` has an E-score of -0.0549.
The E-score of `AAGCTGAC` is reported as -0.0972.
With `CGACCCGA` the E-score was 0.0764.
`CCCATAAC` gave an E-score of -0.185.
For `CCAGGGGG`, the E-score was -0.203.
The E-score of `GTACCTCA` is reported as -0.14.
`TGAGTAAA` gave an E-score of -0.153.
With `CAAGGGCA` the E-score was -0.203.
With `GCAATCGA` the E-score was 0.019.
With `TGAACGAA` the E-score was -0.195.
`ACCTAGAT` gave an E-score of -0.202.
With `CATCTTAC` the E-score was -0.111.
`CGAACTCC` has an E-score of 0.0395.
The E-score of `CGACCTAC` is reported as -0.0102.
`CTAACTCC` has an E-score of -0.0908.
With `CCCGATAA` the E-score was 0.038.
With `GGGCTTCA` the E-score was -0.000955.
`CAGGCTGC` has an E-score of -0.164.

Study 4 — method: RNA Bind-n-Seq; molecule type: RNA; sample: in vitro; concentration: not given; notes: RNA with constant flanks, ends assumed; baseline: input RNA pool; reading: higher = stronger binding
Target: RING finger protein unkempt homolog, zinc fingers 1-6, GST-SBP tag (UNK, Homo sapiens, UniProt Q9C0B0, residues 30-357)
Sequence of UniProt Q9C0B0 (30-357, looked up): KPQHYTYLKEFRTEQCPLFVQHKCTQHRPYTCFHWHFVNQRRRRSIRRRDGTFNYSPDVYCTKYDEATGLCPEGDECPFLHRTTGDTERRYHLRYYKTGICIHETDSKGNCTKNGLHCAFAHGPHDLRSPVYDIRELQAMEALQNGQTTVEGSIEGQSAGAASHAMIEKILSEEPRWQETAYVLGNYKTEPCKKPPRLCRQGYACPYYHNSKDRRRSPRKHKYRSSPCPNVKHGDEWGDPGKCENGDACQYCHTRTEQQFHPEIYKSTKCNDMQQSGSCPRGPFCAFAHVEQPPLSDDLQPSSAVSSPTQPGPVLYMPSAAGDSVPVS
The bound/input enrichment of `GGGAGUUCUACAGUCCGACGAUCCCUCCUUAUGCAAACGGUGACCCUCAUGUUGGACAUGCUUUAAAUAAGAUUUUGAAAGACACCGCCAAUCGAUUCCAUAUGAUGAAUGGCUCCAAAAUACAUUUUGUGCCCGGCUGGGAUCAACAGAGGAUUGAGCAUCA` is reported as 0.222 ratio.
For `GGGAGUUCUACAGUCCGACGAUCAGGCUCAUCCAGCCAUAUAUCCAUAACUACUCCUGGCUGCUCUUUGCUGCCCUGGCUCUCUACCGCGCCCACCUGGCCAGUGCAGAGGAUGUGGAUGGGGAGAAGCUGGACCCCCAGACGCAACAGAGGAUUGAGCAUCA`, the bound/input enrichment was 0.228 ratio.
`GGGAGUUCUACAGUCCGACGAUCUUUAACCAUGUGUCUACAAGAAUAAGUUUGUUUUGGAAAGUUGAGCUAUAGCUACAGCUCCCGCUAUCCAGCAGACUUUUCAUUAUGACUUACAUGGCAGGAGCUCUAAUUAUGCUUUAACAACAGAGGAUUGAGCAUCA` has a bound/input enrichment of 0.167 ratio.
For `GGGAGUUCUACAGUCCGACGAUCGUGGAGAGAGAACUUGUUGAGAAAGAGUUAUUAGAAAAAGUUAAACAUCUUGAGAAUCAAACCGCCAAAACUCCUGCCUUUGAGUCAGCCAGAGAAGAUUCUUCAAGCUUAGUUGCGGAACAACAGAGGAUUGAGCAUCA`, the bound/input enrichment was 3.79 ratio.
With `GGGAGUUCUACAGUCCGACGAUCUGCUUAAUGUAUUAGACAUUUUUAGCCCAUAAUUAAAACAUUGUUGCUUUUACACAGGUGCCGUUUGGUGCAUUUCAUUCAUAGUGUUUUAAAGUUAUUUAUAAAUUAACCAAUUACACUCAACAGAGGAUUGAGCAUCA` the bound/input enrichment was 8.35 ratio.
The bound/input enrichment of `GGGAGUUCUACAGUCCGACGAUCCAUUUCUAUAUUUGUACAUUUUCAUUUAUGAGUUCUAUGAUGUGGUCUCUGAAAGACCAAACCGAUUUCUAUUUCUACUUCUUAUUUUUAAGUUCAUUGUGUCUACAAAUUGUUAAUAUUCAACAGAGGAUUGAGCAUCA` is reported as 1.23 ratio.
For `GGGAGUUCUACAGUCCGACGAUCAGUGAAAAUAUUUCUGCAGCUAUUCAAGCUAAUGGUGAGAUGGUUACAAAGCAACCAUUGAUCCGAAGUAUGCGGACAGUAAAAAGGGAAACUUUAAAGUUAAUAUCUGGUUGGGUGAGCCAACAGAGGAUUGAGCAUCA`, the bound/input enrichment was 0.298 ratio.
The bound/input enrichment of `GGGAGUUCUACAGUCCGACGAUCUAUUUAUAUUUAUUGACUCUUGAGUUGUUUUUGUAUAUUGGUUUUAUGAUGACGUACAAGCCGUUCUGUAUUUGAAAGUGCCUUUGCAGCUCAGAACCACAGCAACGAUCACAAAUGACUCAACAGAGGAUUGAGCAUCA` is reported as 0.34 ratio.
The bound/input enrichment of `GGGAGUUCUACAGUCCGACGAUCCAUCUGCGUCACCACAUAUGUGCUGAACUUCCUCCUCCUCAUCAUCAAUUACAAACGACCCGUUUAUUUGAAUGAGGCCUGGAAGCGACAGCUGCAGCCUAAGGAAGACUGAUGGCCAGCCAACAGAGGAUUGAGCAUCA` is reported as 0.1 ratio.
For `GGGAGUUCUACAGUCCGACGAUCUUUCCCGGAAACAGUACCCAGUACAACAUCCUAGAAGGACUGGAGAAACUCAAACAUCCCGAUUUCCUAAAGCAGCCACUGGCCACCCAAAAAGAUCUCACUGGCCAGGUGCCCACCCCCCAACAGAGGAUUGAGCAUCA`, the bound/input enrichment was 0.237 ratio.
With `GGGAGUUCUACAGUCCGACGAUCUCAUUGUCCUUUCUCCAGUUUUUGUUCCAGAAUAAAAGGAAAUAUUUUAAAAGCCACGUUACCGGACCUAAAAAUCUGAUUUCCGUACCAGUUAAAUUGGUAGCAUCACUGUUACUGAUACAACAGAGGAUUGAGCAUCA` the bound/input enrichment was 0.185 ratio.
